# Published values of several laboratories.
# Lines come from different studies, so protocols differ. Several values in a cell are separate wells, animals, samples, runs or records.
# Target: Serine/threonine-protein kinase D1 (PRKD1, Homo sapiens, UniProt Q15139)
Compound,test,setting,how to read,quantity,result
C=CC(=O)Nc1cccc(-c2cnc3[nH]cc(C(=O)NC(C)(C)C)c3n2)c1,kinase activity,0.1 µM,,inhibition,-1% and 3%
O=C=[N][Ru-4]123([n]4c5ccc(O)cc5c5c6c(c7cc(F)c[n+]1c7c54)C(=O)NC6=O)[S+]1CC[S+]2CC[S+]3CC1 (stereo not shown),enzyme activity,"100 nM, human enzyme, together with: 10 µM ATP",reference: untreated,remaining activity,100%
CCn1cc(C(=O)O)c(=O)c2c(N)c(F)c(NC3CCCCC3)cc21,kinase activity,"0.1 µM, together with: ATP at Km",,inhibition,18.4%
Cc1cccc(-c2ccc3nc(NC(=O)C4CCCCC4)nn3c2)c1,"enzyme activity, Dundee kinase panel",10 µM,,remaining activity,89%
COc1cc(Nc2nccc(-c3cnn4nc(OC)ccc34)n2)cc(C(F)(F)F)c1,"binding, competition with immobilised ligand",1 µM,,remaining binding,100%
C=CC(=O)N1CCc2ccc(-n3c(=O)ccc4cnc5ccc(-c6cnn(C)c6)cc5c43)cc21,KINOMEscan,1 µM,reference: DMSO control,remaining binding,100%
CNC(=O)C[C@H](Cc1ccc(C#N)cc1)NC(=O)c1cc(-c2ccc(CN[C@H](C)c3ccc(C)cc3)o2)ccc1Cl,"enzyme activity, inhibitor",1 µM,,activity vs control,100%
CNC(=O)C1CCN(c2cc(C)c(F)cc2NC(=O)c2ccc(-c3cc(O)ccc3C)c(C)c2)CC1,"binding, competition with immobilised ligand",1 µM,,remaining binding,92%
COCC12C(=O)NC3C4(C(OC)CC1O)C1CC5(O)C(OC)C(O)C(OC(C)=O)(C1C5OC(=O)c1ccccc1)C3(O)C(OC)C24 (stereo not shown),"kinase activity, inhibitor, ProQinase kinase profiling",25 µM,reference: control,remaining activity,85% and 109%
CCN1CCN(Cc2ccc(C(=O)Nc3ccc(C)c(NCc4cnc5[nH]ccc5c4OC)c3)cc2C(F)(F)F)CC1,"binding, competition with immobilised ligand",1 µM,,remaining binding,100%
Nc1ncc(-c2cc(-c3cnn(CC(F)(F)F)c3)ncc2F)nc1C(=O)NC1CNCC(F)C1 (stereo not shown),enzyme activity,1 µM,reference: DMSO control,remaining activity,57.9%
C=CC(=O)N1Cc2nc(-c3cc(-c4cc(Cl)cnc4Cl)c(F)cc3F)n(-c3ccncn3)c2C1,"cell-free assay, inhibitor",1 µM,,inhibition,9.6%
COc1c(OCCCN2CCOCC2)ccc2c1N=C(NC(=O)c1cnc(N)nc1)N1CCN=C21,"kinase activity, inhibitor",1 µM,reference: untreated control,remaining activity,117%
CN1CCN(Cc2ccc(-c3ccc(CO[C@H]4CCC[C@@H]4NC(=O)c4cc(-c5cnn(C)c5)cnc4N)cc3)cc2)CC1,"enzyme activity, inhibitor",0.1 µM,,inhibition,6%
Cc1cccc(-c2ccc3nc(NC(=O)C4CCOCC4)nn3c2)c1,"enzyme activity, Dundee kinase panel",10 µM,,remaining activity,110%
NC(=O)C[C@H]1CCc2sc3ncnc(O[C@H]4CC[C@H](N5CCOCC5)CC4)c3c21,"enzyme activity, inhibitor",10 µM,,inhibition,0%
Cc1ccc(-c2c(/C=C(\C#N)C(=O)NC(C)C)n(CCCO)c3ncnc(N)c23)cc1,"cell-free assay, competition with immobilised ligand",1 µM,,remaining binding,95%
Cc1cccc(O[C@H]2CCC[C@@H](C(C)CNCc3ccncc3)C2)c1 (relative stereo),"enzyme activity, inhibitor",10 µM,,inhibition,-1%
O=C(Cc1ccc(OCc2ccccc2)cc1)NC1(C(=O)O)CCN(C(=O)c2ccc(-c3cccc(Cl)c3)cc2)CC1,"enzyme activity, inhibitor",10 µM,,activity vs control,102%

# Excerpt of the above:
Compound,test,setting,how to read,quantity,result
CCN1CCN(Cc2ccc(C(=O)Nc3ccc(C)c(NCc4cnc5[nH]ccc5c4OC)c3)cc2C(F)(F)F)CC1,"binding, competition with immobilised ligand",1 µM,,remaining binding,100%
Nc1ncc(-c2cc(-c3cnn(CC(F)(F)F)c3)ncc2F)nc1C(=O)NC1CNCC(F)C1 (stereo not shown),enzyme activity,1 µM,reference: DMSO control,remaining activity,57.9%
